Assay results collected from several papers.
Lines come from different studies, so protocols differ. No end group written: not given here.
histone H4: histone H4 (Bos taurus, UniProt P62803)
B1: NCBP2 (Homo sapiens, UniProt P52298); chain MSGGLLKALRSDSYVELSQYRDQHFRGDNEEQEKLLKKSCTLYVGNLSFYTTEEQIYELFSKSGDIKKIIMGLDKMKKTACGFCFVEYYSRADAENAMRYINGTRLDDRIIRTDWDAGFKEGRQYGRGRSGGQVRDEYRQDYDAGRGGYGKLAQNQ
B2: S100A12 (Homo sapiens, UniProt P80511); sequence looked up; chain MTKLEEHLEGIVNIFHQYSVRKGHFDTLSKGELKQLLTKELANTIKNIKDKAVIDEIFQGLDANQDEQVDFQEFISLVAIALKAAHYHTHKE
B3: UGT1A9 (Homo sapiens, UniProt O60656); chain GKLLVVPMDGSHWFTMRSVVEKLILRGHEVVVVMPEVSWQLGRSLNCTVKTYSTSYTLEDLDREFKAFAHAQWKAQVRSIYSLLMGSYNDIFDLFFSNCRSLFKDKKLVEYLKESSFDAVFLDPFDNCGLIVAKYFSLPSVVFARGILCHYLEEGAQCPAPLSYVPRILLGFSDAMTFKERVRNHIMHLEEHLLCHRFFKNALEIASEILQTPVTEYDLYSHTSIWLLRTDFVLDYPKPVMPNMIFIGGINCHQGKPLPMEFEAYINASGEHGIVVFSLGSMVSEIPEKKAMAIADALGKIPQTVLWRYTGTRPSNLANNTILVKWLPQNDLLGHPMTRAFITHAGSHGVYESICNGVPMVMMPLFGDQMDNAKRMETKGAGVTLNVLEMTSEDLENALKAVINDKSYKENIMRLSSLHKDRPVEPLDLAVFWVEFVMRHKGAPHLRPAAHDLTWYQYHSLDVIGFLLAVVLTVAFITFKCCAYGYRKCLGKKGRVKKAHKSKTH
B4: MPLKIP (Homo sapiens, UniProt Q8TAP9); sequence looked up; chain MQRQNFRPPTPPYPGPGGGGWGSGSSFRGTPGGGGPRPPSPRDGYGSPHHTPPYGPRSRPYGSSHSPRHGGSFPGGRFGSPSPGGYPGSYSRSPAGSQQQFGYSPGQQQTHPQGSPRTSTPFGSGRVREKRMSNELENYFKPSMLEDPWAGLEPVSVVDISQQYSNTQTFTGKKGRYFC
B5: UBTF 1-746 (Homo sapiens, UniProt P17480); sequence looked up; chain MNGEADCPTDLEMAAPKGQDRWSQEDMLTLLECMKNNLPSNDSSKFKTTESHMDWEKVAFKDFSGDMCKLKWVEISNEVRKFRTLTELILDAQEHVKNPYKGKKLKKHPDFPKKPLTPYFRFFMEKRAKYAKLHPEMSNLDLTKILSKKYKELPEKKKMKYIQDFQREKQEFERNLARFREDHPDLIQNAKKSDIPEKPKTPQQLWYTHEKKVYLKVRPDATTKEVKDSLGKQWSQLSDKKRLKWIHKALEQRKEYEEIMRDYIQKHPELNISEEGITKSTLTKAERQLKDKFDGRPTKPPPNSYSLYCAELMANMKDVPSTERMVLCSQQWKLLSQKEKDAYHKKCDQKKKDYEVELLRFLESLPEEEQQRVLGEEKMLNINKKQATSPASKKPAQEGGKGGSEKPKRPVSAMFIFSEEKRRQLQEERPELSESELTRLLARMWNDLSEKKKAKYKAREAALKAQSERKPGGEREERGKLPESPKRAEEIWQQSVIGDYLARFKNDRVKALKAMEMTWNNMEKKEKLMWIKKAAEDQKRYERELSEMRAPPAATNSSKKMKFQGEPKKPPMNGYQKFSQELLSNGELNHLPLKERMVEIGSRWQRISQSQKEHYKKLAEEQQKQYKVHLDLWVKSLSPQDRAAYKEYISNKRKSMTKLRGPNPKSSRTTLQSKSESEEDDEEDEDDEDEDEEEEDDENGDSSEDGGDSSESSSEDESEDGDENEEDDEDEDDDEDDDEDEDNESE
B6: LRPAP1 (Homo sapiens, UniProt P30533); sequence looked up; chain YSREKNQPKPSPKRESGEEFRMEKLNQLWEKAQRLHLPPVRLAELHADLKIQERDELAWKKLKLDGLDEDGEKEARLIRNLNVILAKYGLDGKKDARQVTSNSLSGTQEDGLDDPRLEKLWHKAKTSGKFSGEELDKLWREFLHHKEKVHEYNVLLETLSRTEEIHENVISPSDLSDIKGSVLHSRHTELKEKLRSINQGLDRLRRVSHQGYSTEAEFEEPRVIDLWDLAQSANLTDKELEAFREELKHFEAKIEKHNHYQKQLEIAHEKLRHAESVGDGERVSRSREKHALLEGRTKELGYTVKKHLQDLSGRISRARHNEL
B7: CCS1 1-74 C27S (Saccharomyces cerevisiae, UniProt P40202); sequence looked up; chain MTTNDTYEATYAIPMHCENCVNDIKASLKNVPGINSLNFDIEQQIMSVESSVAPSTIINTLRNCGKDAIIRGAG
Sequence of UniProt P05653 (whole entry, unmodified, looked up): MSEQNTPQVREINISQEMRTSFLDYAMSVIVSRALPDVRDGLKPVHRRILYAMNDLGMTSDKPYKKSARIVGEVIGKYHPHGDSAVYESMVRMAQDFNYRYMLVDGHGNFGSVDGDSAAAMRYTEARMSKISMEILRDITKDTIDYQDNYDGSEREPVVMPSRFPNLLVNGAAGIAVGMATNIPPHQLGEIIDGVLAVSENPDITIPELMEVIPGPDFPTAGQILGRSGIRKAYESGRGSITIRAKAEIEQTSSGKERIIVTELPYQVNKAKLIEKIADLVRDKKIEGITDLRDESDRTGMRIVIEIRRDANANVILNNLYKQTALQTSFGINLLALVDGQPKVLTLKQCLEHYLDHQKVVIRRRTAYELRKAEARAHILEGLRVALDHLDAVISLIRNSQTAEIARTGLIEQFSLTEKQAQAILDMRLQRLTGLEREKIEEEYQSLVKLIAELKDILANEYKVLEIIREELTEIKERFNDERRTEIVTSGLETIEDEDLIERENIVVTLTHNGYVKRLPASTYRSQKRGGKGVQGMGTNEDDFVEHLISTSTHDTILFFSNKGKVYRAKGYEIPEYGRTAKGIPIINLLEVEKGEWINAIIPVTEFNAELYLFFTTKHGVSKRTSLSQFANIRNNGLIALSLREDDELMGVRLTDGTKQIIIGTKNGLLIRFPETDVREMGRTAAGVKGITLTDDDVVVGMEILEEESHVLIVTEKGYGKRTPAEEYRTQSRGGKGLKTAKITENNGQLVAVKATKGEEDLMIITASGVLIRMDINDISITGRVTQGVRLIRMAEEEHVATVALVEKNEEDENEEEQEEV
Sequence of UniProt P36046 (whole entry, looked up): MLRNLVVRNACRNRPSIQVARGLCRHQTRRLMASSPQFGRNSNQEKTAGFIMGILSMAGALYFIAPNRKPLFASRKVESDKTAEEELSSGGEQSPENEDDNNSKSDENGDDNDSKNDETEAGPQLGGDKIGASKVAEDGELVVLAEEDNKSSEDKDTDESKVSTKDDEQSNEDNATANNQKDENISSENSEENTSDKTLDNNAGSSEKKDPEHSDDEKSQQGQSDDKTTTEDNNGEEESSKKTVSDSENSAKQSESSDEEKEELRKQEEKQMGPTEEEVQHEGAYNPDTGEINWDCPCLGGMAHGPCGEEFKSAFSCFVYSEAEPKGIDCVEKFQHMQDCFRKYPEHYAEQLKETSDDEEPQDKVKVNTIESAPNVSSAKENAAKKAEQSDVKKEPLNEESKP
Sequence of UniProt Q8WUM4 (whole entry, looked up): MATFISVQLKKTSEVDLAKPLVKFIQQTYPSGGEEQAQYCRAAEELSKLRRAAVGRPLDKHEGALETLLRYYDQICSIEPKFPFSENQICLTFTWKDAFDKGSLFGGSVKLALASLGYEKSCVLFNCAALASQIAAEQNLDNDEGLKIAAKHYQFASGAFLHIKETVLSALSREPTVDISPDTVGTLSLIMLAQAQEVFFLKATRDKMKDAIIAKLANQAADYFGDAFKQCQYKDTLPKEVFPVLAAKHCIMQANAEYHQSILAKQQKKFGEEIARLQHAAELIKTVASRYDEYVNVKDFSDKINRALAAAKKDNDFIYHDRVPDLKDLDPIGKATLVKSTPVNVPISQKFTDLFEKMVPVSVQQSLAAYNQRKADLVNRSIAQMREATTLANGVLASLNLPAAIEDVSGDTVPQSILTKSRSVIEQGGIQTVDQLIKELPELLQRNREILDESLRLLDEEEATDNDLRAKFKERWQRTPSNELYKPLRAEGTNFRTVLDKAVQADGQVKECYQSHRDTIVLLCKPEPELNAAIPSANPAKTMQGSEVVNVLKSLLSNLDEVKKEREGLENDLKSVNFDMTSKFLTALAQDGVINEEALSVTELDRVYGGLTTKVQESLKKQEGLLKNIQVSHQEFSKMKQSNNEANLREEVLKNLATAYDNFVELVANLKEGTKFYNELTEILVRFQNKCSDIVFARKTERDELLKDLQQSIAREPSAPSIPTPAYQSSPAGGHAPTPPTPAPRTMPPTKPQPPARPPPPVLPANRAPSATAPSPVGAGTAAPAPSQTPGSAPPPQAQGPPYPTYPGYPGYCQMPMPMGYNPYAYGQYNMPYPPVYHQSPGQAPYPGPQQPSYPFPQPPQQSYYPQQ
Sequence of UniProt P02489 (whole entry, looked up): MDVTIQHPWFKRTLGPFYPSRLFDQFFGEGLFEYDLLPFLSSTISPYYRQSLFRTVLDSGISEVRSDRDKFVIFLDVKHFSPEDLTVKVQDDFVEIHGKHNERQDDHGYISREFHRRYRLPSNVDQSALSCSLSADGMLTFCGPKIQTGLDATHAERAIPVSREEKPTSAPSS
Sequence of UniProt P05652 (whole entry, looked up): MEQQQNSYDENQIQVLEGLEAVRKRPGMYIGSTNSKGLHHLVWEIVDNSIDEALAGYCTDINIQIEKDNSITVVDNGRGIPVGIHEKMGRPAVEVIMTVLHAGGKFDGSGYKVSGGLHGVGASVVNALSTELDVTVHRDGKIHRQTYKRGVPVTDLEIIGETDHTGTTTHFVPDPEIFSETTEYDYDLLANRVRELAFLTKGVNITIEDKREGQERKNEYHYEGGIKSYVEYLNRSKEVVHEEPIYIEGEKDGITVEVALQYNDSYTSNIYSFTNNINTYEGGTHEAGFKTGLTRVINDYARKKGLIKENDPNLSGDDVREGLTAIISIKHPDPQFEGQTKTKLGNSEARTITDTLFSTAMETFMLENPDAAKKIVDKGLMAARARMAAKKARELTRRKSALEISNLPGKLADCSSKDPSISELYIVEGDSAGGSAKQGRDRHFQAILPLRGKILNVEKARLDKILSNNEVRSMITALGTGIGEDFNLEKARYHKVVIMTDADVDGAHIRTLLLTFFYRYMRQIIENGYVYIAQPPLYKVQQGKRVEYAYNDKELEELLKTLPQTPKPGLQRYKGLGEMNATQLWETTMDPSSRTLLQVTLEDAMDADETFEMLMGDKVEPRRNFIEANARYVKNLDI
Sequence of UniProt P13334 (whole entry, looked up): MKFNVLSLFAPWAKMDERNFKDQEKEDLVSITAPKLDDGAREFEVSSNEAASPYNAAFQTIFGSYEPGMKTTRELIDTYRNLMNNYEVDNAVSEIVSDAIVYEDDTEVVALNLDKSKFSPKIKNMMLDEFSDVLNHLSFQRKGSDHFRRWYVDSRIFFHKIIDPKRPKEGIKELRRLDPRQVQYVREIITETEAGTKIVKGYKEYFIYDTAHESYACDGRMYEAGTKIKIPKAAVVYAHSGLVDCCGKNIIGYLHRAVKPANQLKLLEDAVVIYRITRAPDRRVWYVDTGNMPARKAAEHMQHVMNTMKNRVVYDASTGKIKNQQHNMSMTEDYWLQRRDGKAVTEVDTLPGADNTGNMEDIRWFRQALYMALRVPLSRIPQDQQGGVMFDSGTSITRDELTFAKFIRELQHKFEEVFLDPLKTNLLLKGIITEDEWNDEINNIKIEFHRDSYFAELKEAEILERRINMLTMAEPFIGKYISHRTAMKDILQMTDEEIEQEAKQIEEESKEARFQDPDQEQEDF
Sequence of UniProt P29496 (whole entry, looked up): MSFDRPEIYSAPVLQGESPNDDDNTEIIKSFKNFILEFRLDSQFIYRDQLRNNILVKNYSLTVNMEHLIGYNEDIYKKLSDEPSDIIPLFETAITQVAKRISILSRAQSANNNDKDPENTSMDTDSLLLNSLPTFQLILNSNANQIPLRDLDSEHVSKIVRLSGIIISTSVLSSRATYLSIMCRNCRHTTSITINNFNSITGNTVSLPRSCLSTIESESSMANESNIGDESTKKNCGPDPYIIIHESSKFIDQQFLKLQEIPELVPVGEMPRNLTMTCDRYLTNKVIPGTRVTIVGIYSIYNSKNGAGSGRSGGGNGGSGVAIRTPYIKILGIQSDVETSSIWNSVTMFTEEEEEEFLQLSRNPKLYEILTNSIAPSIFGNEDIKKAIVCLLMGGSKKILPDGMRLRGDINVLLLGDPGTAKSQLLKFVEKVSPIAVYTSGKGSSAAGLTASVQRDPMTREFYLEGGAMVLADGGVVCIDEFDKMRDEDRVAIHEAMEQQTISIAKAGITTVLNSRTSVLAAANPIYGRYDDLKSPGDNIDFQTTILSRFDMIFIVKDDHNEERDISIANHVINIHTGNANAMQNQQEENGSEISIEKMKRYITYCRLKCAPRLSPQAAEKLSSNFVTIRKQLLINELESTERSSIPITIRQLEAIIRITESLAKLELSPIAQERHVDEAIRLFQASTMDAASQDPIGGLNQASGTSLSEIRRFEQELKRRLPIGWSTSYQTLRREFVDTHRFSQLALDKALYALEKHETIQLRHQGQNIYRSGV
Sequence of UniProt Q09161 (whole entry, unmodified, looked up): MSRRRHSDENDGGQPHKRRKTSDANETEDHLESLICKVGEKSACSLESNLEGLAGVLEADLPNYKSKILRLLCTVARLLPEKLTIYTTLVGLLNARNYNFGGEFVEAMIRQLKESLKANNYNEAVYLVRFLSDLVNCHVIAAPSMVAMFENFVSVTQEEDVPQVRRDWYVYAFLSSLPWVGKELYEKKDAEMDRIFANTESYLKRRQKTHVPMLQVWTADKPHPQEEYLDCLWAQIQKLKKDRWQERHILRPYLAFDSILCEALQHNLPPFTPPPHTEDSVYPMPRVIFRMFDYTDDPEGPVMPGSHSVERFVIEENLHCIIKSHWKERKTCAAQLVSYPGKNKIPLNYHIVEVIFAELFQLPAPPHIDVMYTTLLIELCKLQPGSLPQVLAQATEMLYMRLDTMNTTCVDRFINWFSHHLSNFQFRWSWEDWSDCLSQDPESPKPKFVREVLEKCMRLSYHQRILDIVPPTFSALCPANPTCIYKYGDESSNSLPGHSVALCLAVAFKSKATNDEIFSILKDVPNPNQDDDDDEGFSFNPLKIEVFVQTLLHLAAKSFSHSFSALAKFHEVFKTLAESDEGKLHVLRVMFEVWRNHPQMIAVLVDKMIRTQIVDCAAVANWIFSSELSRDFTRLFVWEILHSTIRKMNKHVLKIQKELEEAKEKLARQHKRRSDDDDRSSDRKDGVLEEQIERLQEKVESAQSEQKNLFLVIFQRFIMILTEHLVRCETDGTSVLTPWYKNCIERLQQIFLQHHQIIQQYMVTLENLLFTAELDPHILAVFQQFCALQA

Substance	tested on	assay	test system	setting	quantity	result
B1 (NCBP2)	NCBP1 (Homo sapiens, UniProt Q09161)	crystal structure	–	–	binding	binds
CRYAA (Homo sapiens, UniProt P02489)	CRYGC Y46D (Homo sapiens, UniProt P07315)	SEC	–	–	binding	binds
ORAI1 fragment K85E, fluorescein label (Homo sapiens) (sequence not shown)	Stim1 fragment (Mus musculus)	fluorescence polarisation	–	–	binding	binds
B2 (S100A12)	AGER extracellular domain 23-342 N25Q (Homo sapiens, UniProt Q15109)	ELISA	–	with: CaCl2 1 mM	binding	binds
GYWALLITIADRKEFAKF (ITGB3 715-730 K716A/H722A (Homo sapiens))	Myom1 fragment (Mus musculus)	solid-phase binding assay	peptide	–	binding	binds
B3 (UGT1A9)	CCc1ccc(O)cc1	steady-state kinetics	–	pH 7.4, 37 °C	Vmax	0.00118 µmol/min/mg
B4 (MPLKIP)	AQR/XAB2/ISY1/ZNF830/PPIE complex (Homo sapiens)	pull-down	–	1 hour, 4 °C	binding	binds
BRD1 fragment E62K/D63K/D64K (Homo sapiens) (sequence not shown)	histone H4	pull-down	–	–	binding	binds
SEETKENEGFTVTAEGKGQGTLSVVTMYHAKAKDQLTCNK (C3 1321-1360 (Homo sapiens, UniProt P01024); sequence looked up)	ITGAM 145-331 (Homo sapiens, UniProt P11215)	ELISA	–	with: MgCl2 1 mM	binding	binds
Ac-QRAEEEDDDIKQLAAWAT (CHMP4C C-terminal peptide (Homo sapiens); N-terminal acetyl)	PDCD6IP 1-359 (Homo sapiens, UniProt Q8WUM4)	X-ray crystallography	peptide	–	binding	binds
gp20 (bacteriophage T4, UniProt P13334)	GFP/gp17 fusion (bacteriophage T4)	co-sedimentation	–	30 min, NaCl 100 mM, bound relative to gp23	binding	binds
BACH1 BTB domain C122A, S-nitrosylation treated (Homo sapiens) (sequence not shown)	FBXL17/SKP1 FBXL17 310-701 (Homo sapiens)	BLI	–	apparent	binding	binds
B5 (UBTF 1-746)	TBP/TAF1A/TAF1B/TAF1C (Homo sapiens)	pull-down	not purified SL1	with or without phosphatase	binding	binds
gyrB (Bacillus subtilis, UniProt P05652)	gyrA heterodimer 2-821 C350L/T140C/K570C, Alexa488 and Alexa546 labels (Bacillus subtilis, UniProt P05653)	smFRET	–	pH 7.5, 37 °C, KCl 100 mM	binding	binds
MCM5 (Saccharomyces cerevisiae, UniProt P29496)	PSF1/PSF2/PSF3/SLD5 (Saccharomyces cerevisiae)	cross-linking	–	–	binding	binds
B6 (LRPAP1)	LRP1 (Homo sapiens, UniProt Q07954)	competition with ligand, SPR	–	with: proMMP-1 75 nM	binding	binds
B7 (CCS1 1-74 C27S)	MIA40 284-403, oxidized (UniProt P36046)	pull-down	–	10 min, pH 7.0, 25 °C, NaCl 200 mM, nonreducing	binding	binds
BRD1 fragment E41K/E43K/E45K (Homo sapiens) (sequence not shown)	histone H4	pull-down	–	–	binding	binds
BACH1 BTB domain C34A (Homo sapiens) (sequence not shown)	FBXL17/SKP1 FBXL17 310-701 (Homo sapiens)	BLI	–	apparent	binding	binds

Repeated from above:
Substance	tested on	assay	test system	setting	quantity	result
gyrB (Bacillus subtilis, UniProt P05652)	gyrA heterodimer 2-821 C350L/T140C/K570C, Alexa488 and Alexa546 labels (Bacillus subtilis, UniProt P05653)	smFRET	–	pH 7.5, 37 °C, KCl 100 mM	binding	binds
MCM5 (Saccharomyces cerevisiae, UniProt P29496)	PSF1/PSF2/PSF3/SLD5 (Saccharomyces cerevisiae)	cross-linking	–	–	binding	binds
B6 (LRPAP1)	LRP1 (Homo sapiens, UniProt Q07954)	competition with ligand, SPR	–	with: proMMP-1 75 nM	binding	binds
